Experimental data collected from several papers.
Every numbered part comes from another study and shows a few of its results, in no order. Changes are numbered by the printed parent chain.

Set 1 — method: RNA Bind-n-Seq; molecule type: RNA; sample: in vitro; concentration: 200 nM; notes: whole 134-nt RNA, ends assumed; added: 150 mM LiCl; relative to: input library; reading: higher = stronger binding; all molecules: 7-deaza-guanosine replaces G
Target: Fragile X messenger ribonucleoprotein 1, C-terminal low-complexity region (Fmr1, Mus musculus, UniProt P35922)
Constant ends, left off below: GGGAGUUCUACAGUCCGACGAUC … UGGAAUUCUCGGGUGUCAAGG
Sequence | log2 enrichment
AGUCCUGUGCUACACAUCGUAUGUACCGAAUCGGUUUUUGGGUUUUUGGUUUUUGGGGAAAGUAUUAUGUUACGCCGUUCGGAUCUGCAC | -1.18
CAAGUCCUGUGCUACACAUCGUAUGUACCGAAUCGGGGCCCGGGGCCCGGCCCGGAAAGUAUUAUGUUACGCCGUUCGGAUCUGCACUUC | -1.66
UGGGAGGUGGAUUUUGUUUAUUUUUUUAGCUCAUUUCCAGGGGUGGGAAUUUUUUUUUAAUAUGUGUCAUGAAUAAGGUUGUUUUUGAAA | 0.218
GUCCUGUGCUACACAUCGUAUGUACCGAAUCGGGGAAAAAAAGGGGAAAGGGGUGGGGAAAGUAUUAUGUUACGCCGUUCGGAUCUGCAC | -0.862
UGGGAGGUGGAUUUUGUUUAUUUUUUUAGCUCAUUUCCAGGGGUGGGAAUUUUUUUUUAAUAUGUGGCAUGAAUAAAGUUGUUUUUGAAA | 0.496
GUCCUGUGCUACACAUCGUAUGUACCGAAUCGGGGUGGGGUUUUUGGGGUUUUUGGGGAAAGUAUUAUGUUACGCCGUUCGGAUCUGCAC | 0.347
UGGGAGGUGGAUUUUGUUUAUUUUUUUAGCUCAUUUCCAGGGGUGGGAAUUUUUUUUUAAUAUGUGUCAUAAAUAAAGUUGUUUUUGAAA | 0.131
CAAGUCCUGUGCUACACAUCGUAUGUACCGAAUCGGAAAAAGGAGGUUUUUUUGGAAAGUAUUAUGUUACGCCGUUCGGAUCUGCACUUC | -1.34
AGUCCUGUGCUACACAUCGUAUGUACCGAAUCGGGAAAAAAAGGGAAAGGGUUUGGGAAAGUAUUAUGUUACGCCGUUCGGAUCUGCACU | -3.08
AAGUCCUGUGCUACACAUCGUAUGUACCGAAUCGGGAAAGGGUUUGGGUUUUUGGGAAAGUAUUAUGUUACGCCGUUCGGAUCUGCACUU | -1.95

Set 2 — target: CCNE2, cyclin fold, Cln2 fusion (human); method: yeast growth competition, sequencing; sample: yeast; notes: strong parent motif; relative to: not given; reading: higher = stronger binding
Parent: BRCA2 docking peptide (human); PSIKRNLLNEFDR; partner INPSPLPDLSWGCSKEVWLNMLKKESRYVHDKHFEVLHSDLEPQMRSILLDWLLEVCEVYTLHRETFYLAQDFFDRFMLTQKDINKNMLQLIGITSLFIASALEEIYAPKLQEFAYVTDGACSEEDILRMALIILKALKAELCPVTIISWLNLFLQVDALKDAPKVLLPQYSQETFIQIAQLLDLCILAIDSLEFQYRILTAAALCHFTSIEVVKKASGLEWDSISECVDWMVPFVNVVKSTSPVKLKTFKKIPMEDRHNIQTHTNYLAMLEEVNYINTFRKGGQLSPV
Substitution | normalised enrichment score
PSIKRNTLNEFDR [L7T] | 0.579
PSIKRNLLNIFDR [E10I] | 1.31
PSIKQNLLNEFDR [R5Q] | -0.0607
PSIKRNLLMEFDR [N9M] | 2
DSIKRNLLNEFDR [P1D] | 1.59
PSSKRNLLNEFDR [I3S] | 0.701
PSIKRNLLKEFDR [N9K] | 1.91
PSIKRNLLNEWDR [F11W] | 0.485
PSIKRNLLNEFPR [D12P] | 1.11
PSIERNLLNEFDR [K4E] | -0.167
PSIGRNLLNEFDR [K4G] | -0.374
PSIKRNLFNEFDR [L8F] | 1.18
PSIKRNLLNEFDH [R13H] | 0.866
PSGKRNLLNEFDR [I3G] | 0.828
PSIKRNVLNEFDR [L7V] | -0.186

Set 3 — method: universal PBM; molecule type: double-stranded DNA, one strand shown; sample: in vitro; concentration: not given; reading: higher = stronger binding
Target: Sal-like protein 4, full length isoform B (SALL4, Homo sapiens, UniProt Q9UJQ4-2, residues 1-616)
Notes: 8-mer, flanks averaged, mean of replicates
Residues (chain): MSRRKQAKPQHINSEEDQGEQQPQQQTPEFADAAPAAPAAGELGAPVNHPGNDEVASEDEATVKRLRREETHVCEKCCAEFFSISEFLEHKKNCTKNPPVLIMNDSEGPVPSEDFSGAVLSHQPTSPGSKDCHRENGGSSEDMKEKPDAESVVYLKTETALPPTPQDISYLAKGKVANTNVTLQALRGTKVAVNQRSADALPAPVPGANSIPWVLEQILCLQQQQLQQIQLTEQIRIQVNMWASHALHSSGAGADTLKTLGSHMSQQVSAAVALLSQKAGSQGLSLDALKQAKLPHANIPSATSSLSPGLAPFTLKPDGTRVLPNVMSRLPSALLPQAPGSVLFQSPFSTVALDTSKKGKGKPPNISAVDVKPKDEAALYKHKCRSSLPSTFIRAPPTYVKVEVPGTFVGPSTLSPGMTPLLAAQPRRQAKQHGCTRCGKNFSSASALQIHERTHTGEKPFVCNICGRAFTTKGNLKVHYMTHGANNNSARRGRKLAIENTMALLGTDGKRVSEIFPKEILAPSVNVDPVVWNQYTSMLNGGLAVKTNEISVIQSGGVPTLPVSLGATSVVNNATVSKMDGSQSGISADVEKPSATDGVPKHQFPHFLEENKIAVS
Sequence | E-score
ATGTTATC | 0.102
ACGACATA | 0.11
CGCCGGGA | -0.324
ATTAATAC | 0.375
AGCAGACC | -0.151
AAGTTGTC | 0.0571
ATCATTAA | 0.304
AGGCAACG | -0.25
CTACCAGA | -0.0743
AACTACAT | 0.161
AGAGAGGC | -0.101
AAAAGCGG | -0.17
CCAGAGCG | -0.309
ACGCACAC | 0.0224
AGCCACAT | 0.143
ACGCACCT | -0.0632

Other studies, line by line
Molecule | target | assay | system | conditions | scale | endpoint | result
PhoQ, residues 284 288 289 292 302 303 GASLAW | PhoP, residues 12 14 15 18 19 YHFSH (Escherichia coli, UniProt P23836) | Sort-seq, refers to: YFP reporter | E. coli | PhoQ-PhoP variant library, added: 10 µM Mg2+ | relative to: high Mg2+ state, higher = stronger signaling | fold induction | 7.15

Excerpt of the above (set 3):
Sequence | E-score
ACGCACAC | 0.0224
CGCCGGGA | -0.324
AAAAGCGG | -0.17
ATTAATAC | 0.375
AACTACAT | 0.161
